Results from different studies.
Each numbered part is a random draw from the data of one study; scales do not carry over between parts. Positions count from the first letter of the parent shown.

Set 1 — technique: protein-binding microarray; molecule type: double-stranded DNA, one strand shown; sample: in vitro; tested at: 2540 nM top; notes: 60-bp whole probe; with: salmon DNA 0.4 mg/ml; reference: random background probes; direction: higher = stronger binding; endpoint: fitted relative affinity; constant ends, left off below: GCCTAGCAC … GTCTTGATTCGCTTGACGCTGCTG
Target: Interferon regulatory factor 3, full length, phosphomimetic (IRF3, Homo sapiens, UniProt Q14653, residues 1-427, S386D/S396D/S398D/S402D/T404D/S405D)
Residues (chain): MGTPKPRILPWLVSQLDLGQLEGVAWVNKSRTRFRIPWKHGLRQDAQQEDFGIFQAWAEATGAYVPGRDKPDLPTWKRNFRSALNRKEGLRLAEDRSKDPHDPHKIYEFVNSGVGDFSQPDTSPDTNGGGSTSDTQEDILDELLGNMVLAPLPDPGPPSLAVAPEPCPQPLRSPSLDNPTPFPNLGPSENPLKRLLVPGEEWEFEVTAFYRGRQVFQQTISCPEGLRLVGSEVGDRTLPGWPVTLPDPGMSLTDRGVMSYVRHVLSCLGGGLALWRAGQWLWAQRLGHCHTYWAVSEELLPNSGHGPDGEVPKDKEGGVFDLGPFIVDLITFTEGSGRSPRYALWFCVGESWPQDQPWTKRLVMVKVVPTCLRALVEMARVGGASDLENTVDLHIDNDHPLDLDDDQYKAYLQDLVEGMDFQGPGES
TTAGAACTGGGGTATCGTTTAGTGCTA: -0.165 z-score
TTAGATCTGAGTTTCGATTAGTGCTAG: 2.52 z-score
GAGTGCTGGGATTACAGGCAGTGCTAG: -0.739 z-score
TTAGAGCTGAGTATCGATTAGTGCTAG: -0.0185 z-score
GGCGGTTTCCTTCTCCTGACGTGCTAG: 10.4 z-score
GACGGACTGGGTCTGGGGACGTGCTAG: -0.914 z-score
CTCAGTTTATTTATTTTTACGTGCTAG: 0.693 z-score
GGCGATTTCAGTATCGAGACGTGCTAG: 2.05 z-score
GTACATCTCTCTTAAATAGGGTGCTAG: 0.737 z-score
TCATCATTGCCTATTTTTCCGTGCTAG: 0.299 z-score
TTAGGTATCCTACTGCTTTAGTGCTAG: 2.4 z-score
TCAATTTTTTTTCTAACACTGTGCTAG: 0.74 z-score
TTAGATATCGGGTTTCGTTTAGTGCTA: 2.13 z-score
TTAGGTATCCTACTGCTCTAGTGCTAG: 2.51 z-score
GACGGTTTTCTTTCCCTGACGTGCTAG: 4.5 z-score
TTAGGTCTCCTATTGCTTTAGTGCTAG: 1.26 z-score
GAGGATTTCAGACTGGAGACGTGCTAG: 0.007 z-score
GACGATATCATTTTCGAGACGTGCTAG: 2.29 z-score
TCATATATGTGATTAAAACTGTGCTAG: 0.531 z-score
TTAGAACTGAGACGGGATTAGTGCTAG: -0.39 z-score
TTAGGTATCGGACTTGGTTAGTGCTAG: 2.41 z-score
TCACTAATAAATATGAGACTGTGCTAG: 0.053 z-score
GACGGTATCGCTATCGGGACGTGCTAG: 2.57 z-score
GACGGACTGGAATTTCGGGACGTGCTA: -0.0287 z-score
TTCTAAACCATTTTGGTTTTGTGCTAG: 1.69 z-score

Set 2 — technique: RNA Bind-n-Seq; molecule type: RNA; sample: in vitro; tested at: 365 nM; reference: no-protein control; direction: higher = stronger binding; endpoint: RBNS enrichment (R)
Target: RNA binding protein fox-1 homolog 2, RRM domain, GST-SBP tag (RBFOX2, Homo sapiens, UniProt O43251-10, residues 100-194)
Notes: natural RNA segment, single round, ends assumed
Constant ends, left off below: GGGAGUUCUACAGUCCGACGAUC … UGGAAUUCUCGGGUGCCAA
Target sequence (chain): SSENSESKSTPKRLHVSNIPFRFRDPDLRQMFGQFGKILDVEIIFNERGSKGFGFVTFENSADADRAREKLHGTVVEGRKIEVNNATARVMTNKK
CUGUCUUAAGAGACUACUGGUUCAGCUCCAGGCCUCUGAAAGACAUGUUAUUUCUUCCUCACAUCCAUCCAGUGGGGAGGACCCUCUGACUUAAGGGACCACCUUGGGAA: 0.215
AGGGAUUUAUCCAAUCUAAGCCCUAACCCCACUUAGUGACCUCAGUGUUUUCUUCCAUUCCUUCUUACUGCCCUGUCCUCUGCCUUGGAAGAGGCUUUGGGAAUAGUUCA: 0.252
AGGGCCUCAUAUGUUAGAUCACCUUGGGUGGCAAACACCCCAGUUCCCACGCAGUUGAGUGUCAUCACCCAAGUCCCUGUCAUCUAGGAAGGAAGUGGAUGCAGGGUGGA: 0.52
GUAGUCUGCCCAAUUCCUGCUGCACCUGAAGGGGAAAAAGCAGUUUAUCUGUCUCUUCCCCAAAUAACCAUUUUGUAAUUUAUUUUUUAAGCGGGCUCCUGACAAUGAGA: 0.613
AUACAUGCCACCACACAAAGACAUACACAUAUGCACAUAAUUAAAAACUAAAAAUGAAUCAUAAAAAACAAAUGGGUACAUGAUAUGGUAAGAUAAAUGAGGGGGAAAAA: 0.727
UGCCUUAACAAUCCCCAGACAGUGUUCUCUCAAGCAGUGUUCCAGACUUGUUGGGUGUGAAGAUAAAUGCAUGUAAGAGCAGCCCUUUGGAGGCUGAGGCAGGAGAAUCU: 21.5
ACGUAGUCUUUUGUAUUUUCCCUGCCGAAGUGAAUUGUUGGAGAAUGUAAACCGCCUCCACGUGGCGGCAGACUUCCUAAGGCCCCAGCUCGCUGGCCUCGCGCUGGGCG: 0.775
CUCAGACAGGUACUAUUUGUAAGUAGCAUAGACAGCAGGGGGGUGGGGUGGUCAACCUGUGUCCCCUCUGAGCCGUUAUGCCAAAGGUCACUAAGGACAUUUAGAAUCCC: 0.204
GACGUGGCCAGCACCACGUCCAGCAGCGAGAGCUUGUGGGAGCUGCACCUGACUGGGAGCUAGGGGACCACCUGCCUUGGCCAGACCUGGGACGCCCCCAGACCCUGACU: 0.655
CCCCAGACCUAGACCUCCCUUCUAAAAGCCAGAACCAGGAAGGCUUGCAUAAAGAAGGUGUGGCCUCUGAGCUCUCAAGGGCCCCAGUUGCCACCAACCACCACCACAGG: 0.325
AGCCCUGGCACUAAUGCUGUACAGGUUUUUUUCCUGUUAGGAGAGCUGAGGCCAGCUGCCCACUGAGUCUCCUGUCCCUGAGAAGGGAGUAUGGCAGGGCUGGGAUGCGG: 0.277
ACAACCCAGGCGUCAGAAGCCUGUUUCUUACUGUCUCCCCAGAGACUCAAGUGUCUUCUGCUCCCAAGGGAGUUCCUUCCUGCUUGUUUGUUUGAAUGUUGAUUUUUUUU: 9.47

Set 3 — technique: protein binding microarray; molecule type: double-stranded DNA, one strand shown; sample: in vitro; tested at: not given; reference: not given; direction: higher = stronger binding; endpoint: E-score
Target: Histone acetyltransferase KAT6A, winged helix 1, GST fusion (KAT6A, Homo sapiens, UniProt Q92794, residues 1-85)
Notes: 8-mer, flanks averaged, mean of 2 arrays, mostly near background
Target sequence (chain): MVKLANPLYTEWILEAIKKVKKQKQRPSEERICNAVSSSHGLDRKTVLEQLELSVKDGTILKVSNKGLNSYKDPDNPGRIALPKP
AGTTAACC: 0.0518
GGCCAGTA: -0.0696
ATAAGAAC: -0.0944
GAAGTGCC: -0.053
GAGGCGGA: 0.186
ATCTCCTA: -0.214
ATCCGTCA: 0.0575
ATCGACTC: -0.245
CGTGTATC: 0.0718
ACCGTTAT: 0.0113
CAGAACTG: -0.104
CATAAGAA: -0.188
GTCGGACA: 0.168
GTTCAAAA: -0.158
CAGTACCC: -0.0739
GTCCTTAA: -0.165

Set 4 — technique: DHFR PCA, deep sequencing; sample: yeast; with: (+)-ABA 200 µM; reference: wild-type fitted maximum; direction: higher = stronger binding; endpoint: relative binding score
Target: ABI1, truncated, D143A, DHFR fusion (Arabidopsis thaliana)
Notes: methotrexate growth selection, single substitutions
Starting sequence: PYL1, truncated, DHFR fusion (Arabidopsis thaliana); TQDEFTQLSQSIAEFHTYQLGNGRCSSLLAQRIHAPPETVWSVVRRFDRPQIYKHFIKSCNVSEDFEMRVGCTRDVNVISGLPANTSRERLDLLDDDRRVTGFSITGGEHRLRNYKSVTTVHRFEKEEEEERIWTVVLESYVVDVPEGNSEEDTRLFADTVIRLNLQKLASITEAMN; partner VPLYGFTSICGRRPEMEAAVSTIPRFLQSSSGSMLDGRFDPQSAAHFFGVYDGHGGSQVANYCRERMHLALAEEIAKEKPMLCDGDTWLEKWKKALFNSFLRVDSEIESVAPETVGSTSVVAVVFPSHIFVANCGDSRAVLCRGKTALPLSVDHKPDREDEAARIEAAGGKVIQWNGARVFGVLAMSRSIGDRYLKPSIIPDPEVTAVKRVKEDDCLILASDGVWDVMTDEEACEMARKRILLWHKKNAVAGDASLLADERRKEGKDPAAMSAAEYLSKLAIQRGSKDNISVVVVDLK
E151H: 91.3%
S150C: 91.3%
A170S: 88.6%
N149H: 44.4%
F56P: 7.94%
T154C: 91.4%
Y18T: 86.6%
N85G: 100%
S27I: 1.58%
I133A: 115%
T86N: 99.6%
V145H: 31.1%
D96Y: 45.1%
D3C: 90.4%
T120G: 20.7%

Set 5 — technique: universal PBM; molecule type: double-stranded DNA, one strand shown; sample: in vitro; tested at: 600 nM; direction: higher = stronger binding; endpoint: E-score
Target: Sal-like protein 4, full length isoform A (SALL4, Homo sapiens, UniProt Q9UJQ4, residues 1-1053)
Sequence of UniProt Q9UJQ4 (whole entry, looked up): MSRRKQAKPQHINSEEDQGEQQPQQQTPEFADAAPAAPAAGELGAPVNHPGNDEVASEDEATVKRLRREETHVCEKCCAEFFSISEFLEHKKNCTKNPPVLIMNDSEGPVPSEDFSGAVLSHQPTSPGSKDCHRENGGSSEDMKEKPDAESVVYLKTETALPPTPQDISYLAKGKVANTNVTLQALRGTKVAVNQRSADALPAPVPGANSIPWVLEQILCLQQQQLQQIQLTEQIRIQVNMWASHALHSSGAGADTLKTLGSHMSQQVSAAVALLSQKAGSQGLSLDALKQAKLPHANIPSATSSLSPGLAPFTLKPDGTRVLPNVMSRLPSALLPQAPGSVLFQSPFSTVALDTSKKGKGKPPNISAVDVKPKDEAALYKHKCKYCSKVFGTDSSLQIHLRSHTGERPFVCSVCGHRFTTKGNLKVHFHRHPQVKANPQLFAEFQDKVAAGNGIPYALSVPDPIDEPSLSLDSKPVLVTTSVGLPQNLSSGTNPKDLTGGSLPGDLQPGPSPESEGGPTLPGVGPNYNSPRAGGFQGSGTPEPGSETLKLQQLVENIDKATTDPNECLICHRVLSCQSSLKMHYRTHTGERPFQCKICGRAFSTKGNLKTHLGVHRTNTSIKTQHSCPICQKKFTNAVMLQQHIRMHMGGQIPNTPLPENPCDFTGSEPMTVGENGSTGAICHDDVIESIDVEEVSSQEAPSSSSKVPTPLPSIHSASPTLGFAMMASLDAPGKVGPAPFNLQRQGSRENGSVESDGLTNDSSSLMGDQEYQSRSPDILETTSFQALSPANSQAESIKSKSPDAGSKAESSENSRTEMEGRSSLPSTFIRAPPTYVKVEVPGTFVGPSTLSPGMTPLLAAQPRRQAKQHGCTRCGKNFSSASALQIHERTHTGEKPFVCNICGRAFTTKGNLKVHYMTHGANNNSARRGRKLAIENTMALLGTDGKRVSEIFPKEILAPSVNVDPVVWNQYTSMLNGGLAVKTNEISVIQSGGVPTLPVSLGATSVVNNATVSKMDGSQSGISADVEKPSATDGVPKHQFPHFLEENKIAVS
Notes: 8-mer, flanks averaged, mean of replicates
TCAGGAAA: 0.0812
CCGATAAG: -0.0156
ATGCAGTC: 0.0841
AGAATTTC: 0.0641
GGAGCTAC: -0.195
ACCTGAGG: -0.294
CATACAAC: 0.146
AAAGTGGC: -0.1
ATCAACAC: 0.198
AGCACACA: -0.177
CCACGAAC: 0.044
AAGGGGAG: -0.256
ACCTAAAC: -0.0273
ACGGTATG: 0.013
CTGCTTGA: -0.139
ACCAGGAG: -0.225
GCCACGAA: -0.115
GTCTGCAA: -0.046

Set 6 — technique: RNA Bind-n-Seq; molecule type: RNA; sample: in vitro; tested at: 200 nM; notes: whole 134-nt RNA, ends assumed; with: 150 mM LiCl; reference: input library; direction: higher = stronger binding; endpoint: log2 enrichment; library: 7-deaza-guanosine replaces G
Target: Fragile X messenger ribonucleoprotein 1, C-terminal low-complexity region (Fmr1, Mus musculus, UniProt P35922)
Constant ends, left off below: GGGAGUUCUACAGUCCGACGAUC … UGGAAUUCUCGGGUGUCAAGG
AGUCCUGUGCUACACAUCGUAUGUACCGAAUCGGGUUUUUUUGGGAGGGAAAAAGGGAAAGUAUUAUGUUACGCCGUUCGGAUCUGCACU: -1.21
UAACUUUAGAGGAGGAUCUGAUGGAUAUGGCAGUGGACGUGGAUUUGGGGAUGGCUAUAAUGUGUAUGGAGGAGGACCUGGAGGUGGCAA: 1.11
UUGUGGCUGAGAGACAGUUUGCAAAGGAACAACAUACAGAUGGGACACUAAAGGAAGUUGGAGAAGAUUAUCAAAUCGCAAUCCCAGAUU: 1.01
UGGCCCUGGUGGCAUGCGGGGAGGAAGAGGUGGCCUCAUGGAUCGUGGUGGUCCCGGUGGAAUGUUCAGAGGUUGCCGUGGUGGAGACAG: -0.428
AAGUCCUGUGCUACACAUCGUAUGUACCGAAUCGGGCCCCGGCCCCGGGGCCCCGGAAAGUAUUAUGUUACGCCGUUCGGAUCUGCACUU: -2.64
ACCAUGCAGGUGGGCAUCUUUGGGAAGUGGGGCAAGGGGGGGAUACGGAGGGGGGUAACACUUUGGGAACAGGUGGUCCCAGGUCGUUUC: 0.606
CACAGACAACACGCACCCACACAGACACAGAGGGAAGGGGUUGGGAUGGGGACAGGGUGCACAGCAGGGCGGGGUAGGACCCCAGCCCCG: -0.129
AGUCCUGUGCUACACAUCGUAUGUACCGAAUCAAAUUUUUUUAAAUUUAAAUUUAAAAAAGUAUUAUGUUACGCCGUUCGGAUCUGCACU: -3.17
GCAGGAAGUAAAAACAAAUGGAAAUGCUUCGGAUACUGGCAGGGGUGGGGGUUGCUAAGGAAAGGGUGGGAUGGGAGUGGGUAAAGAGUU: 1.5
AAGUCCUGUGCUACACAUCGUAUGUACCGAAUCAAACCCAAACCCAAACCCCCAAAAAAGUAUUAUGUUACGCCGUUCGGAUCUGCACUU: -0.356

Some of these lines once more (set 3):
AGTTAACC: 0.0518
GGCCAGTA: -0.0696
ATAAGAAC: -0.0944
GAAGTGCC: -0.053
GAGGCGGA: 0.186
ATCTCCTA: -0.214
ATCCGTCA: 0.0575
ATCGACTC: -0.245
CGTGTATC: 0.0718
ACCGTTAT: 0.0113
CAGAACTG: -0.104
CATAAGAA: -0.188
